Published values of several laboratories.
Several values in a cell are separate wells, animals, samples, runs or records. Numbers after ± are the reported error.
LGALS8: Galectin-8 (LGALS8, Homo sapiens, UniProt O00214)
UniProt O00214, sequence (whole entry, looked up): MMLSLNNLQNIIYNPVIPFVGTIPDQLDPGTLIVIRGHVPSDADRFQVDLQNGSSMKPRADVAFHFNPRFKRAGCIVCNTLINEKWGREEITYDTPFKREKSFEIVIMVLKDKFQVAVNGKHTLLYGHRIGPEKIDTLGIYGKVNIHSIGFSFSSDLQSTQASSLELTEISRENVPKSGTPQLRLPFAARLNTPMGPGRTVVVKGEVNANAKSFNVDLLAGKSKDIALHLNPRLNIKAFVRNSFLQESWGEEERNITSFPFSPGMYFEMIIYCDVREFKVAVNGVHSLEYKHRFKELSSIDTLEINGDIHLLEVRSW
Eif4e: Eukaryotic translation initiation factor 4E (Eif4e, Mus musculus, UniProt P63073)
UniProt P63073, sequence (whole entry, looked up): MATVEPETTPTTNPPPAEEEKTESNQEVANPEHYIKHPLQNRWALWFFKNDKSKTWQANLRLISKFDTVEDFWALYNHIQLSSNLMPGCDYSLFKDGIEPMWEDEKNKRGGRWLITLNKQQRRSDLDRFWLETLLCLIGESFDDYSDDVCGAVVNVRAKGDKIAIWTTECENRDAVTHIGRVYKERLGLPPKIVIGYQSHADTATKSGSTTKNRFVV
POLB: DNA polymerase beta (POLB, Homo sapiens, UniProt P06746)
POLB R183A: DNA polymerase beta (POLB, Homo sapiens, UniProt P06746, R183A)
POLB I260M: DNA polymerase beta (POLB, Homo sapiens, UniProt P06746, I260M)
UniProt O43283, sequence (whole entry, looked up): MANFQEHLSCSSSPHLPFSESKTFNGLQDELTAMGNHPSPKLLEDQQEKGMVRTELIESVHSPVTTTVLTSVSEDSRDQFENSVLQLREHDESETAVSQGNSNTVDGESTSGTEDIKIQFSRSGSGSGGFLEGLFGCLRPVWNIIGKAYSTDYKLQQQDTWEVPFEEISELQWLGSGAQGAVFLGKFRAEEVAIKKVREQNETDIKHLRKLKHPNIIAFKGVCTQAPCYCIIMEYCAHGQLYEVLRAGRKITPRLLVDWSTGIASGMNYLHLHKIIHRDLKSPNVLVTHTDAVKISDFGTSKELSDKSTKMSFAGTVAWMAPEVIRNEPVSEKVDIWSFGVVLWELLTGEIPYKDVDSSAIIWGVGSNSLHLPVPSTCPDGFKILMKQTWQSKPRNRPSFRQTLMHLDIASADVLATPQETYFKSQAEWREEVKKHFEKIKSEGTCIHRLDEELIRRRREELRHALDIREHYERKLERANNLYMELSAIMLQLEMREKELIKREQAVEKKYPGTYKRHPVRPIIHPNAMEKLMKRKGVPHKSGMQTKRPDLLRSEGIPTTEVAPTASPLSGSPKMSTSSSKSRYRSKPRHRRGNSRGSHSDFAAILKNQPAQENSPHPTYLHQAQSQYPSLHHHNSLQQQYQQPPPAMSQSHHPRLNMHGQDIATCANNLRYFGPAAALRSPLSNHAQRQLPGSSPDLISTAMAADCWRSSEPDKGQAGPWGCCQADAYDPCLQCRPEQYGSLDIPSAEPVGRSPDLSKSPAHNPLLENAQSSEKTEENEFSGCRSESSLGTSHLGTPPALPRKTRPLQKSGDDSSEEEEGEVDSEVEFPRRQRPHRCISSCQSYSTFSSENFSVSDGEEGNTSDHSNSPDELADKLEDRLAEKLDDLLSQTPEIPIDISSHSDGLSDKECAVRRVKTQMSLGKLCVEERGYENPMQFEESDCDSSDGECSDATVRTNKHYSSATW
UniProt P20248, sequence (whole entry, looked up): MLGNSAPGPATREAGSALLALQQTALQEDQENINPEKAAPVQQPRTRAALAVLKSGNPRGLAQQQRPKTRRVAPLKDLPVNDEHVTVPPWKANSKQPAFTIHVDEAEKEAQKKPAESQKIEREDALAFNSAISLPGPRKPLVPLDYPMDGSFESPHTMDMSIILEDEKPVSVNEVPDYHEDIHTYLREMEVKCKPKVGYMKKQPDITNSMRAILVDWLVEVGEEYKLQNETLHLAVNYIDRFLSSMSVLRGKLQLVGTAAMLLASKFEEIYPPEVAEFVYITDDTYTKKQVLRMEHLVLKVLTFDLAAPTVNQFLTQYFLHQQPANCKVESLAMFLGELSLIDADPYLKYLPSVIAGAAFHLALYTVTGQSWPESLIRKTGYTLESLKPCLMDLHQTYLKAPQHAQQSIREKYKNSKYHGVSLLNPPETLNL
UniProt A0A109QYD3, sequence (whole entry, unmodified, looked up): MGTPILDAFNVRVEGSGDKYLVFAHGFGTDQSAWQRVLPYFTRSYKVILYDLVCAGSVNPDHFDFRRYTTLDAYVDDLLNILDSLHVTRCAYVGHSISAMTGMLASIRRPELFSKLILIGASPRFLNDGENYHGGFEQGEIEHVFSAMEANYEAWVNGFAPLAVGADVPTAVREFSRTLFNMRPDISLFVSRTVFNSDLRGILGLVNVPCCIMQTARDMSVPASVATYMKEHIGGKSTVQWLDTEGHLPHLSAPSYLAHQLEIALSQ
UniProt P10145, sequence (whole entry, looked up): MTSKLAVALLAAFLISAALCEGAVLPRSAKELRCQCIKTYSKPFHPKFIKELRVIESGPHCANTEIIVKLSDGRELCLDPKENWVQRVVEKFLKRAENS
UniProt Q96301, sequence (whole entry, looked up): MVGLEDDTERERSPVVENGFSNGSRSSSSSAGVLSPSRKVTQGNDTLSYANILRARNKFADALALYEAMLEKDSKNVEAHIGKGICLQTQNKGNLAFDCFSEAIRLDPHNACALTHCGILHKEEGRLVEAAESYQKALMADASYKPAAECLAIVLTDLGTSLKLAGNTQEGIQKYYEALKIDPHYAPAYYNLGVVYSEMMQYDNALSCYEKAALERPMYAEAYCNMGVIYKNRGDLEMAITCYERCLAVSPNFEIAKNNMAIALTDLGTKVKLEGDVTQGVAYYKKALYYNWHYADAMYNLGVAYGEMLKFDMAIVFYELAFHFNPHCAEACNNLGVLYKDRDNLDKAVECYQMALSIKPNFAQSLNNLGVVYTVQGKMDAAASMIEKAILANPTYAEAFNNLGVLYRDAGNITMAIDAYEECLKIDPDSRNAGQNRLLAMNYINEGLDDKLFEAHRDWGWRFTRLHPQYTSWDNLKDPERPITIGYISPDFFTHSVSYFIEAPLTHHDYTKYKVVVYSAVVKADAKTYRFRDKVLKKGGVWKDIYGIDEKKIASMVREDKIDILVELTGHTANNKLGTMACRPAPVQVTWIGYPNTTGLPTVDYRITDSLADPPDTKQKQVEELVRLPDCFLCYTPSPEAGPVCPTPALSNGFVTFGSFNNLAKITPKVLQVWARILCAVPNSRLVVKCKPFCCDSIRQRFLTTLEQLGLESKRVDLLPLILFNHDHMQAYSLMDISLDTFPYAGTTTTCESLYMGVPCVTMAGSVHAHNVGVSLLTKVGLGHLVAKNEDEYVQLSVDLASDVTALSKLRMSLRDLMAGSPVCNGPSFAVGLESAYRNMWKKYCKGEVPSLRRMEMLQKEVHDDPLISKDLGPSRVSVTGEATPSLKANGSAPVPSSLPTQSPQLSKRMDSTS
UniProt Q06124, sequence (whole entry, looked up): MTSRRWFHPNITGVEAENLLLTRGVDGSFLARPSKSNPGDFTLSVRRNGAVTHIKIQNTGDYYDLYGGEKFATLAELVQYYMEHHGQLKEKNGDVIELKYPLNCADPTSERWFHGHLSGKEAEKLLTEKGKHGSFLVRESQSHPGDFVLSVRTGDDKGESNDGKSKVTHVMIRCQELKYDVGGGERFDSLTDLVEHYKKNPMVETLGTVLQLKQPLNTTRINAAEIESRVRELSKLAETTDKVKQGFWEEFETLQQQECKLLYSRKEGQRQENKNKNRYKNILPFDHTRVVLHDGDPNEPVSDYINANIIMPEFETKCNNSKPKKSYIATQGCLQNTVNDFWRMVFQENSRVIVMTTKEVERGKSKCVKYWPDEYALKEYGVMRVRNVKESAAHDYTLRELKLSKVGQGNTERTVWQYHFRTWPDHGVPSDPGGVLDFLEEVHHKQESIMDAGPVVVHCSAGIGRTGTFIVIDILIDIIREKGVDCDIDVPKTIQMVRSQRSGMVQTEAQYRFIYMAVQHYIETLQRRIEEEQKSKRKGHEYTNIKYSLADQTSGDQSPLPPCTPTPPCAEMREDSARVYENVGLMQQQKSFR

CC[C@H](C)[C@@H]1NC(=O)[C@H](C)NC(=O)[C@H](C)NC(=O)[C@H]([C@@H](C)O)NC(=O)[C@H](Cc2ccccc2)NC(=O)[C@@H]2CSSC[C@@H]3NC(=O)[C@H](C)NC(=O)[C@H](CCCCN)NC(=O)[C@H](CO)NC(=O)[C@H](CCCCN)NC(=O)[C@@H]4CSSC[C@H](NC(=O)[C@H](CO)NC(=O)[C@H](CCC(=O)O)NC(=O)CNC(=O)[C@H](CSSC[C@H](NC(=O)CNC1=O)C(=O)N[C@@H](CO)C(=O)N4)NC(=O)[C@@H]1CCCN1C(=O)[C@H](Cc1ccccc1)NC(=O)CNC(=O)[C@H](CC(N)=O)NC(=O)[C@H](CCCCN)NC(=O)[C@H](Cc1ccc(O)cc1)NC3=O)C(=O)N[C@@H](C(C)C)C(=O)N[C@@H](Cc1ccc(O)cc1)C(=O)N[C@@H](CC(C)C)C(=O)N1CCC[C@H]1C(=O)N2 — Kd (POPC/POPE lipid membrane; membrane binding, surface plasmon resonance; POPC/POPE 80:20 vesicles; pH 7.4): 14.8 ± 0.79 µM
CCCc1cc2c3c(c1CCC)O[C@H](CO)[C@H](O)[C@@H]3OC2 — Kd (LGALS8; cell-free assay, FP): > 2000 µM
C[n+]1cn(C2OC(COP(=O)(O)OP(=O)([O-])OP(=O)(O)OCC3OC(n4cnc5c(=O)[nH]c(N)nc54)C(O)C3O)C(O)C2O)c2nc(NCc3ccccc3)[nH]c(=O)c21 (centres unmarked) — Kd (Eif4e; differential scanning fluorimetry): 5.03 µM
CC(=O)[C@@]1(O)CC[C@H]2[C@@H]3CCC4=CC(=O)CC[C@]4(C)[C@H]3CC[C@@]21C — Kd (mouse anti-cortisol Fab 17; native MS titration; 200 mM ammonium acetate; 1.5% DMSO, 0.5% methanol, together with: Fab 100 nM): 1.44 ± 0.14 µM
Nc1nc2c(ncn2C2CC(O)C(COP(=O)(O)OP(=O)(O)C(F)P(=O)(O)O)O2)c(=O)[nH]1 (mixture of isomers) — Kd (POLB; nucleotide binding, substrate, single turnover kinetics; 37 °C, dG misincorporation opposite A): 786 ± 293 µM
NS(=O)(=O)c1c(F)c(F)c(S(=O)(=O)CCO)c(NCc2ccccc2)c1F — Kd (CA2 (Homo sapiens, UniProt P00918, A65S/F130A/I91T/L203N/N67K/V134S); pH 7): 0.04 µM
CC1=C[C@@H](O/C=C2/C(=O)O[C@H]3c4ccccc4C[C@@H]23)OC1=O — Kd (RMS3 (Lathyrus oleraceus, UniProt A0A109QYD3, S96C); binding, fluorescence): 676 µM
CC#Cc1cc2c3c(c1C#CC)O[C@H](CO)[C@H](O)[C@@H]3OC2 — Kd (LGALS8; cell-free assay, FP): > 2000 µM
CC[C@H](C)[C@H](NC(=O)[C@H](CC(=O)O)NC(=O)[C@H](CO)NC(C)=O)C(=O)N[C@@H](CSCc1ccccc1)C(=O)N[C@@H](CC(=O)O)C(=O)N[C@@H](Cc1ccccc1)C(=O)N[C@H](C(=O)N[C@@H](CC(C)C)C(=O)N[C@@H](CCCCN)C(=O)N[C@@H](CC(N)=O)C(=O)N[C@@H](Cc1ccc(O)cc1)C(=O)N1CCC[C@H]1C(N)=O)[C@@H](C)CC — Kd (CREB-binding protein, KIX domain (CREBBP, Homo sapiens, UniProt Q92793); binding, fluorescence polarisation): 7.3 ± 1.5 µM
Nc1nc2c(ncn2[C@H]2C[C@H](O)[C@@H](COP(=O)(O)OP(=O)(O)[C@@H](Cl)P(=O)(O)O)O2)c(=O)[nH]1 — Kd (POLB R183A; substrate, pre-steady-state kinetics; incorporation opposite dC in gapped DNA): 300 ± 96 µM
C[n+]1cn(C2OC(COP(=O)(O)OP(=O)([O-])C(Cl)(Cl)P(=O)(O)O)C(O)C2O)c2nc(N)nc(O)c21 (centres unmarked) — Kd (Eukaryotic translation initiation factor 4E, residues 28-217 (Eif4e, Mus musculus, UniProt P63073); binding, fluorescence quenching titration; pH 7.2, 20 °C): 0.00532 ± 0.000209 µM
CC1(CN)CCN(c2cnc(Sc3cccc(Cl)c3Cl)c(N)n2)CC1 — Kd (PTPN11 (Homo sapiens, UniProt Q06124); binding, ITC): 0.15 µM
Nc1nc2c(ncn2C2CC(O)C(COP(=O)(O)OP(=O)(O)C(F)(Cl)P(=O)(O)O)O2)c(=O)[nH]1 (mixture of isomers) — Kd (POLB I260M; nucleotide binding, substrate, single turnover kinetics; 37 °C, dG misincorporation opposite A): 886 ± 220 µM
C[n+]1cn([C@@H]2O[C@H](COP(=O)([S-])OP(=O)(O)OP(=O)(O)OC[C@H]3O[C@@H](n4cnc5c(NCCCCCCN)ncnc54)[C@H](O)[C@@H]3O)[C@@H](O)[C@H]2O)c2nc(N)nc(O)c21 (mixture of isomers) — Kd (Eif4e; cap analogue binding, pyrene fluorescence competition; 20 °C): 0.433 µM and 0.43 µM
Nc1nc2c(ncn2C2CC(O)C(COP(=O)(O)OP(=O)(O)C(Br)P(=O)(O)O)O2)c(=O)[nH]1 (mixture of isomers) — Kd (POLB; nucleotide binding, substrate, single turnover kinetics; 37 °C, dG misincorporation opposite A): 205 ± 79 µM
NC(=O)[C@@H](CCC(=O)O)NC(=O)[C@@H](CCC(=O)O)NC(=O)[C@@H](CCC(=O)O)NC(=O)[C@@H](CCC(=O)O)NC(=O)[C@@H](CCC(=O)O)NC(=O)[C@@H](CCC(=O)O)NC(=O)[C@@H](CCC(=O)O)NC(=O)[C@@H](CCC(=O)O)NC(=O)CCC(=O)O — Kd (r9; binding, ITC; pH 7.40, 37 °C): ~6 µM
CC(=O)N[C@@H]1[C@@H](O[C@@H]2O[C@H](C(=O)O)[C@@H](O[C@@H]3O[C@H](COS(=O)(=O)O)[C@@H](O)[C@H](O[C@@H]4O[C@H](C(=O)O)[C@@H](O)[C@H](O)[C@H]4O)[C@H]3NC(C)=O)[C@H](O)[C@H]2O)[C@H](O)[C@@H](COS(=O)(=O)O)O[C@H]1N=[N+]=[N-] — Kd (Interleukin-8 (CXCL8, Homo sapiens, UniProt P10145); ligand displacement, FP): 1330 µM
Nc1nc2c(ncn2[C@H]2C[C@H](O)[C@@H](COP(=O)(O)OP(=O)(O)[C@H](F)P(=O)(O)O)O2)c(=O)[nH]1 — Kd (POLB R183A; substrate, pre-steady-state kinetics; incorporation opposite dC in gapped DNA): 6.8 ± 1 µM
CC[C@H](C)[C@H](NC(=O)[C@H](CC(C)C)NC(=O)[C@H](CCCNC(=N)N)NC(=O)c1ccc(CN2CCN(C)CC2)cc1)C(=O)N[C@@H](Cc1ccccc1)C(N)=O — Kd (Cyclin-A2 (CCNA2, Homo sapiens, UniProt P20248); binding, tryptophan fluorescence titration; pH 8.0, 25 °C, expressed without chaperones): 3.21 µM
O=C(O[C@@H]1[C@@H](c2c(O)cc(O)c3c2O[C@H](c2cc(O)c(O)c(O)c2)[C@H](OC(=O)c2cc(O)c(O)c(O)c2)C3)c2c(O)cc(O)cc2O[C@@H]1c1cc(O)c(O)c(O)c1)c1cc(O)c(O)c(O)c1 — Kd (Neurogenic locus notch homolog protein 1 (Homo sapiens, UniProt P46531); binding, SPR): 4.62 µM
CC[C@H](C)[C@@H]1NC(=O)[C@H](C)NC(=O)[C@H](C)NC(=O)[C@H]([C@@H](C)O)NC(=O)[C@H](Cc2ccccc2)NC(=O)[C@@H]2CSSC[C@@H]3NC(=O)[C@H](C(C)C)NC(=O)[C@H](CCCCN)NC(=O)[C@H](CO)NC(=O)[C@H](CCCCN)NC(=O)[C@@H]4CSSC[C@H](NC(=O)[C@H](CO)NC(=O)[C@H](CCC(=O)O)NC(=O)CNC(=O)[C@H](CSSC[C@H](NC(=O)CNC1=O)C(=O)N[C@@H](CO)C(=O)N4)NC(=O)[C@@H]1CCCN1C(=O)[C@H](Cc1ccccc1)NC(=O)CNC(=O)[C@H](CC(N)=O)NC(=O)[C@H](CCCCN)NC(=O)[C@H](Cc1ccc(O)cc1)NC3=O)C(=O)N[C@@H](C(C)C)C(=O)N[C@@H](C)C(=O)N[C@@H](CC(C)C)C(=O)N1CCC[C@H]1C(=O)N2 — Kd (POPC/POPE lipid membrane; membrane binding, surface plasmon resonance; POPC/POPE 80:20 vesicles; pH 7.4): 55.7 ± 0.1 µM
Cc1cn(C2CC(O)C(COP(=O)(O)OP(=O)(O)C(Br)P(=O)(O)O)O2)c(=O)[nH]c1=O (mixture of isomers) — Kd (POLB I260M; substrate, single turnover kinetics; 37 °C): 6.2 ± 0.5 µM
CNCCNC(=O)CN1C(=O)Cc2c([nH]c3ccc(Br)cc23)-c2ccc(Cl)cc21 — Kd (Trypanothione synthetase (Leishmania infantum, UniProt A4I2Z3); isothermal titration calorimetry; together with: ADP 2 mM and glutathione 2 mM): 0.417 µM
Cc1ncsc1-c1ccc([C@H](C)NC(=O)[C@@H]2C[C@@H](O)CN2C(=O)[C@@H](NC(=O)[C@H]2C[C@H](C(=O)N3CCC(c4cc(Nc5cc(C#N)ccn5)nc(N5CCC(F)(F)C5)c4)CC3)C2)C(C)(C)C)cc1 — Kd (MAP3K13 (Homo sapiens, UniProt O43283); binding, competition with immobilised ligand): 0.071 µM
CC[C@H](C)[C@@H]1NC(=O)[C@H](C)NC(=O)[C@H](C)NC(=O)[C@H]([C@@H](C)O)NC(=O)[C@H](C)NC(=O)[C@@H]2CSSC[C@@H]3NC(=O)[C@H](C(C)C)NC(=O)[C@H](CCCCN)NC(=O)[C@H](CO)NC(=O)[C@H](CCCCN)NC(=O)[C@@H]4CSSC[C@H](NC(=O)[C@H](CO)NC(=O)[C@H](CCC(=O)O)NC(=O)CNC(=O)[C@H](CSSC[C@H](NC(=O)CNC1=O)C(=O)N[C@@H](CO)C(=O)N4)NC(=O)[C@@H]1CCCN1C(=O)[C@H](Cc1ccccc1)NC(=O)CNC(=O)[C@H](CC(N)=O)NC(=O)[C@H](CCCCN)NC(=O)[C@H](Cc1ccc(O)cc1)NC3=O)C(=O)N[C@@H](C(C)C)C(=O)N[C@@H](Cc1ccc(O)cc1)C(=O)N[C@@H](CC(C)C)C(=O)N1CCC[C@H]1C(=O)N2 — Kd (POPC/POPE lipid membrane; membrane binding, surface plasmon resonance; POPC/POPE 80:20 vesicles; pH 7.4): 19.4 ± 0.8 µM
CC[C@H](C)[C@H](NC(=O)[C@@H]1CCCN1C(=O)[C@H](Cc1c[nH]cn1)NC(=O)[C@@H](NC(=O)[C@H](Cc1ccc(O)c(I)c1)NC(=O)[C@@H](NC(=O)[C@H](CCCNC(=N)N)NC(=O)CNC)C(C)C)[C@@H](C)CC)C(=O)O [iodine-125 labelled] — Kd (angiotensin II receptor type 1, rat; binding, saturation radioligand binding; female rat, estrus, liver membranes): 0.00042 µM and 0.00093 µM
CSCC[C@H](NC(=O)[C@H](CO)NC(=O)[C@H](CCCNC(=N)N)NC(=O)[C@H](CCCCN)NC(=O)[C@H](CO)NC(=O)[C@H](CCCCN)NC(=O)[C@H](CCCCN)NC(=O)CNC(=O)[C@H](CCCCN)NC(=O)[C@H](CCCCN)NC(=O)[C@H](CC(C)C)NC(=O)[C@H](CCCNC(=N)N)NC(=O)[C@H](CCCNC(=N)N)NC(=O)[C@@H](N)CSC1CC(=O)N(c2ccc3c(c2)C(=O)OC32c3ccc(N(C)C)cc3Oc3cc(N(C)C)ccc32)C1=O)C(=O)N[C@@H](CC(N)=O)C(=O)N[C@@H](CC(=O)O)C(=O)N1CCC[C@H]1C(=O)N[C@@H](Cc1ccc(O)cc1)C(=O)O (some centres unmarked) — Kd (Moesin, FERM domain (Homo sapiens, UniProt P26038); binding, TMR fluorescence titration; pH 7.4, FERM domain): 0.214 ± 0.022 µM
Cc1cn([C@H]2C[C@H](O)[C@@H](COP(=O)(O)OP(=O)(O)C(Br)(Br)P(=O)(O)O)O2)c(=O)[nH]c1=O — Kd (POLB I260M; substrate, single turnover kinetics; 37 °C): 43.9 ± 10.5 µM
COC1CCC(N(C(=O)C2CCC(C)CC2)c2cc(C3=CCCCC3)sc2C(=O)O)CC1 (centres unmarked) — Kd (Probable UDP-N-acetylglucosamine--peptide N-acetylglucosaminyltransferase SPINDLY (SPY, Arabidopsis thaliana, UniProt Q96301); binding, biolayer interferometry; together with: SPY wild-type): 29.3 µM
